# Assay results of several laboratories.
# Protocols differ between the studies behind these lines. ± gives the spread as reported.
SMILES,test system,setting,tissue uptake
N#C[C@@H]1CCCN1C(=O)CNC(=O)c1ccnc2ccc(OCCCN3CCN(C(=O)CCc4ccc5c(c4)CN4CCN6CC(=O)[O][68Ga-]([O]C(=O)C4)([O]5)[O]c4ccc(CCC(=O)N5CCN(CCCOc7ccc8nccc(C(=O)NCC(=O)N9CCC[C@H]9C#N)c8c7)CC5)cc4C6)CC3)cc12,"BALB/c nude mice, U-87 MG xenograft, heart","1 h, blocking, together with: DOTA-FAPI-04 40 nmol/mouse co-injected",0.88 ± 0.24 %ID/g
CCCC[C@H](NC(=O)CCCCCCCNC(=O)CN1CCN(CC(=O)O)CCN(CC(=O)O)CC1)C(=O)N[C@H]1CC(=O)NCCCC[C@@H](C(N)=O)NC(=O)[C@H](Cc2c[nH]c3ccccc23)NC(=O)[C@H](CCCNC(=N)N)NC(=O)[C@@H](Cc2ccccc2)NC(=O)[C@H](Cc2c[nH]cn2)NC1=O [fluorine-18 labelled],"C57 mice B16-F10 melanoma, kidneys","intravenous, 0.37 MBq, 1 h",6.37 ± 0.68 %ID/g
COc1ccc(Nc2nc(Nc3ccc(OCCOCC[18F])cc3)ncc2Br)cc1,"ICR mice, S180 tumour, intestine","intravenous, 370 kBq, 30 min",3.3 ± 0.09 %ID
O=C(NCC1OC2CCC=CCCC2O1)c1ccc(COCCOCCOCC[18F])cc1 (stereo not drawn),"healthy female BALB/c nude mice, heart","intravenous, 7.4 MBq per mouse, 15 min",2.8 ± 0.2 %ID/g
CC(C)C[C@H](NC(=O)[C@@H](CCCCNC(=O)[C@@H](Cc1ccccc1)NC(=O)CCCCCCCNC(=O)CN1CCN(CC(=O)O)CCN(CC(=O)O)CCN(CC(=O)O)CC1)NC(=O)[C@H](Cc1ccc(O)cc1)NC(=O)[C@H](CO)NC(=O)[C@H](Cc1c[nH]c2ccccc12)NC(=O)[C@H](Cc1c[nH]cn1)NC(=O)[C@@H]1CCC(=O)N1)C(=O)N[C@@H](CCCNC(=N)N)C(=O)N1CCC[C@H]1C(=O)NCC(N)=O [indium-111 labelled],"male athymic nude mice, DU-145 prostate cancer xenograft, blood","intravenous, 0.037 MBq, 2 h",0.15 ± 0.11 %ID/g
CCCC[C@H](NC(=O)CNC(=O)CNC(=O)[C@H](CCCCNC(=O)[C@H](CC(N)=O)NC(=O)C(C)c1ccc(CC(C)C)cc1)NC(=O)CN1CCN(CC(=O)O)CCN(CC(=O)O)CCN(CC(=O)O)CC1)C(=O)N[C@H]1CC(=O)NCCCC[C@@H](C(N)=O)NC(=O)[C@H](Cc2c[nH]c3ccccc23)NC(=O)[C@H](CCCNC(=N)N)NC(=O)[C@@H](Cc2ccccc2)NC(=O)[C@H](Cc2c[nH]cn2)NC1=O (stereo partly drawn) [lutetium-177 labelled],"C57 mice, tumour-bearing, brain",2 h,0.1 ± 0.02 %ID/g
O=C(NCC1OC2CCC=CCCC2O1)c1ccc([18F])nc1 (stereo not drawn),"healthy female BALB/c nude mice, muscle","intravenous, 7.4 MBq per mouse, 5 min",2.1 ± 0.7 %ID/g
Cc1cc(C)n(CCN(CCN)CCCCCCNC(=O)[C@@H](N)Cc2c[nH]cn2)n1.[99Tc+].[C-]#[O+].[C-]#[O+].[C-]#[O+],"BALB/c nude mice, A549 xenograft, kidney","intravenous, 4 h",8.8 ± 0.46 %IA/g
CCCC[C@H](NC(=O)CNC(=O)CNC(=O)[C@H](CCCCNC(=O)[C@H](CC(=O)O)NC(=O)C(C)c1ccc(CC(C)C)cc1)NC(=O)CN1CCN(CC(=O)O)CCN(CC(=O)O)CCN(CC(=O)O)CC1)C(=O)N[C@H]1CC(=O)NCCCC[C@@H](C(N)=O)NC(=O)[C@H](Cc2c[nH]c3ccccc23)NC(=O)[C@H](CCCNC(=N)N)NC(=O)[C@@H](Cc2ccccc2)NC(=O)[C@H](Cc2c[nH]cn2)NC1=O (stereo partly drawn) [lutetium-177 labelled],"C57 mice, tumour-bearing, heart","intravenous, 0.037 MBq, 0.5 h",2.58 ± 0.41 %ID/g

# A few entries again:
SMILES,test system,setting,tissue uptake
CCCC[C@H](NC(=O)CNC(=O)CNC(=O)[C@H](CCCCNC(=O)[C@H](CC(N)=O)NC(=O)C(C)c1ccc(CC(C)C)cc1)NC(=O)CN1CCN(CC(=O)O)CCN(CC(=O)O)CCN(CC(=O)O)CC1)C(=O)N[C@H]1CC(=O)NCCCC[C@@H](C(N)=O)NC(=O)[C@H](Cc2c[nH]c3ccccc23)NC(=O)[C@H](CCCNC(=N)N)NC(=O)[C@@H](Cc2ccccc2)NC(=O)[C@H](Cc2c[nH]cn2)NC1=O (stereo partly drawn) [lutetium-177 labelled],"C57 mice, tumour-bearing, brain",2 h,0.1 ± 0.02 %ID/g
